Measured values pooled from the literature.
Protocols differ between the studies behind these lines. “And” joins repeats or separate records; there may be more than shown. ± marks the error that the study gave.

C=CC(=O)Nc1cc(Nc2nccc(-c3cn(C)c4ccccc34)n2)c(OC)cc1N(C)CCN(C)C
percentage recovery (storage stability; human plasma samples; 30 d, -80 °C, HQC level; reference: nominal concentration): 13.4%

Cc1cc(Nc2cc3ncccc3c(N[C@@H]3C[C@H]4CC[C@@H](C3)N4CCC#N)n2)n[nH]1
subjects with epistaxis (healthy human; oral, 300 mg single dose, 2 weeks): 0%

CCN1CCN(Cc2ccc(NC(=O)c3ccc(C)c(NC(=O)c4cncc(-c5cccs5)c4)c3)cc2C(F)(F)F)CC1
AUC/dose (C57BL/6 mouse, plasma; intraperitoneal, 15 mg/kg, 0.25 to 8.0 h, single dose): 0.12 kg·µg·h/mL/mg

COc1ccc2c(c1)CN(C(=O)CCN1CCC(Cc3ccccc3)CC1)CC[S@@+]2[O-]
diastolic blood pressure (telemetry; conscious dog; intravenous, 8 mg/kg, 1 h): 91 ± 20 mmHg

C=CC[C@@H]1/C=C(\C)C[C@H](C)C[C@H](OC)[C@H]2O[C@@](O)(C(=O)C(=O)N3CCCC[C@H]3C(=O)O[C@H](/C(C)=C/[C@@H]3CC[C@@H](O)[C@H](OC)C3)[C@H](C)[C@@H](O)CC1=O)[C@H](C)C[C@@H]2OC
patients with subtherapeutic C0 (kidney transplant recipients, whole blood; oral, dose not given, late post-transplant phase): 25%

CCCOc1ccc([C@H]2CNC(=O)N2c2ccc3[nH]cnc3c2)cc1
AUC(0-24h) (human elderly fasted, CSF; oral, 300 mg twice daily capsule, day 7, geometric mean): 362 ng·h/mL

O=C(N[C@H](Cc1c[nH]c2ccccc12)C(=O)Nc1ccncc1)c1ccc(N2CCN(c3ccc(F)cc3F)CC2)cc1F
concentration (Swiss Webster mouse, female, liver; oral, 50 mg/kg, 2 h, 20% Kolliphor vehicle): 98 µM

Cc1cccc(CNC(=O)c2cn(CCNC(=O)c3ccccc3S)c3cc4c(cc3c2=O)OC(F)(F)O4)n1
bioavailability (Sprague-Dawley rat, male, whole blood; intramuscular, 3 mg/kg of parent drug): 76%

O=C(O)CCCOc1ccc([18F])cc1-c1cc(-c2ccccc2C(F)(F)F)n(-c2ccccc2)n1
radioactivity uptake (gamma counting; male ddY mice, heart; intravenous, 2.1 MBq, 5 min): 7.05 ± 0.94 SUV

O=C(COc1ccc(Cl)cc1)NC12CC(c3nnc([C@H]4C[C@@H](OC(F)(F)F)C4)o3)(C1)C2
treatment-emergent adverse events (refers to: catheter site pain; healthy humans, both sexes; oral, 400 mg, single ascending dose; reference: subjects): 16.7%

CNCc1ccc(-c2[nH]c3cc(F)cc4c3c2CCNC4=O)cc1
abdominal distension incidence (patients; oral, 600 mg twice daily, grade 5): 0%

CC(C)(C(=O)N1CCOc2c(C#N)cncc2C1)C(F)F
subjects with TEAE (refers to: renal and urinary disorders; human, both sexes; oral, 20 mg once daily, 14 days, multiple ascending dose): 0%

O=C(N[C@@H](CSCc1ccc([N+](=O)[O-])cc1)C(=O)NO)c1ccccc1
serum malondialdehyde (male ICR mice; oral, 200 mg/kg, 28 days, OECD 407 subacute toxicity): no effect

CC[C@H](C)[C@@H]([C@@H](CC(=O)N1CCC[C@H]1[C@H](OC)[C@@H](C)C(=O)N[C@@H](Cc1ccccc1)C(=O)O)OC)N(C)C(=O)[C@@H](NC(=O)[C@@H](NC)C(C)C)C(C)C
excreted in feces (refers to: sum of compound and compound-HPA; Sprague Dawley rat, feces; intravenous, dose not given, 120 h, dosed as NaPi2b ADC, recovery-corrected; reference: dose): < 2%

Cc1c(C(=O)O)ccc2c3n(nc12)[C@@H]1[C@H](C3)N(CC2CC2)[C@@]2(C(=O)Nc3cc(Cl)ccc32)[C@H]1c1cccc(Cl)c1F
Tmax (female BALB/c nude mice, SJSA-1 xenograft, plasma; oral, 1 mg/kg twice daily, 2 doses, mean): 11 h

CC[C@H](C)[C@H](NC(=O)[C@H](Cc1ccccc1)NC(=O)[C@H](CCC(=O)O)NC(=O)[C@H](CCCCNC(=O)COCCOCCNC(=O)COCCOCCNC(=O)CC[C@H](NC(=O)CCCCCCCCCCCCCCCCC(=O)O)C(=O)O)NC(=O)[C@H](C)NC(=O)[C@H](C)NC(=O)[C@H](CCC(N)=O)NC(=O)CNC(=O)[C@H](CCC(=O)O)NC(=O)[C@H](CC(C)C)NC(=O)[C@H](Cc1ccc(O)cc1)NC(=O)[C@H](CO)NC(=O)[C@H](CO)NC(=O)[C@@H](NC(=O)[C@H](CC(=O)O)NC(=O)[C@H](CO)NC(=O)[C@@H](NC(=O)[C@H](Cc1ccccc1)NC(=O)[C@@H](NC(=O)CNC(=O)[C@H](CCC(=O)O)NC(=O)C(C)(C)NC(=O)[C@@H](N)Cc1cnc[nH]1)[C@@H](C)O)[C@@H](C)O)C(C)C)C(=O)N[C@@H](C)C(=O)N[C@@H](Cc1c[nH]c2ccccc12)C(=O)N[C@@H](CC(C)C)C(=O)N[C@H](C(=O)N[C@@H](CCCNC(=N)N)C(=O)NCC(=O)N[C@@H](CCCNC(=N)N)C(=O)NCC(=O)O)C(C)C
QTcB change from baseline (12-lead Holter ECG; healthy humans; subcutaneous, 1.5 mg once weekly, 30 h, steady state; reference: placebo): 6.3 ms

Cc1nc(-c2cnc(NC(C)C)n(C)c2=O)ccc1Oc1ccnc(-c2cnn(C)c2)c1
apparent clearance (DBA/1 mouse, female, plasma; oral, 15 mg/kg, single dose): 2 mL/min/kg

Cc1nc(-c2ccc(OCC(C)C)c(C#N)c2)sc1C(=O)O
body weight (KM mouse, chronic hyperuricaemia model; dose not given, day 15): 30.4 g and 32 g and 32.6 g and 39.4 g and 35.6 g and 35.8 g

For quick reference, copied from above:
O=C(N[C@H](Cc1c[nH]c2ccccc12)C(=O)Nc1ccncc1)c1ccc(N2CCN(c3ccc(F)cc3F)CC2)cc1F
concentration (Swiss Webster mouse, female, liver; oral, 50 mg/kg, 2 h, 20% Kolliphor vehicle): 98 µM

CC[C@H](C)[C@@H]([C@@H](CC(=O)N1CCC[C@H]1[C@H](OC)[C@@H](C)C(=O)N[C@@H](Cc1ccccc1)C(=O)O)OC)N(C)C(=O)[C@@H](NC(=O)[C@@H](NC)C(C)C)C(C)C
excreted in feces (refers to: sum of compound and compound-HPA; Sprague Dawley rat, feces; intravenous, dose not given, 120 h, dosed as NaPi2b ADC, recovery-corrected; reference: dose): < 2%
